Results from different studies.
A part holds a random share of what one study measured. Substitutions count along the parent as printed.

Set 1
Target: Interferon regulatory factor 5, full length, phosphomimetic (IRF5, Homo sapiens, UniProt Q13568-2, residues 1-514, K96S/S451D/S453D/S456D/S462D)
Method: protein-binding microarray
Form: double-stranded DNA, one strand shown
Sample: in vitro
Tested at: 250 nM
Setting: 60-bp whole probe
Added: salmon DNA 0.4 mg/ml
Baseline: random background probes
Direction: higher = stronger binding
Shared flanks, not repeated: GCCTAGCAC … GTCTTGATTCGCTTGACGCTGCTG
| Oligonucleotide | log fluorescence [z-score] |
| --- | --- |
| TCACTTTCCTTTATGTAACTGTGCTAG | 2.68 |
| GGCACCCAAGCTCTTGTTTGGTGCTAG | -0.845 |
| GACGAAATGGGGACTGGAGACGTGCTA | 0.153 |
| GTAGGTTCCGGTTTCGGTTAGTGCTAG | 9.51 |
| TCCAGTCTGGGAGATGAAGCGGTGCTA | -0.7 |

Set 2
Target: Prothrombin, mature alpha-thrombin (F2, Homo sapiens, UniProt P00734)
Method: aptamer microarray, sandwich
Form: DNA with 2'F-ANA
Sample: in vitro
Tested at: 200 nM
Setting: whole 15-mer aptamer, many near background
Added: Cy3 exosite-II aptamer, 400 nM
Direction: higher = stronger binding
Oligonucleotide: GGTTGGTGTGGTTGG
| Modification | mean fluorescence intensity [a.u.] |
| --- | --- |
| 2'F-ANA at 1 2 3 4 5 8 11 15 | 53.9 |
| 2'F-ANA at 1 3 6 8 13 14 | 88.7 |
| 2'F-ANA at 1 2 3 4 7 10 11 12 13 14 | 54.9 |
| 2'F-ANA at 1 2 3 4 5 7 8 9 11 12 | 102 |
| 2'F-ANA at 1 4 11 13 | 102 |

Set 3
Target: ABI1, truncated, D143A, DHFR fusion (Arabidopsis thaliana)
Method: DHFR PCA, deep sequencing
Sample: yeast
Setting: methotrexate growth selection, single substitutions
Added: (+)-ABA 17 µM
Baseline: wild-type fitted maximum
Direction: higher = stronger binding
Starting sequence: PYL1, truncated, DHFR fusion (Arabidopsis thaliana); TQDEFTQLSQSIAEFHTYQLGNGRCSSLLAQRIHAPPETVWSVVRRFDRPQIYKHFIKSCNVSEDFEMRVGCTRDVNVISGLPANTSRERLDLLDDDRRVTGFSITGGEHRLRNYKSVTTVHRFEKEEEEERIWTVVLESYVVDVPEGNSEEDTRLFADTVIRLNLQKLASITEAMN; partner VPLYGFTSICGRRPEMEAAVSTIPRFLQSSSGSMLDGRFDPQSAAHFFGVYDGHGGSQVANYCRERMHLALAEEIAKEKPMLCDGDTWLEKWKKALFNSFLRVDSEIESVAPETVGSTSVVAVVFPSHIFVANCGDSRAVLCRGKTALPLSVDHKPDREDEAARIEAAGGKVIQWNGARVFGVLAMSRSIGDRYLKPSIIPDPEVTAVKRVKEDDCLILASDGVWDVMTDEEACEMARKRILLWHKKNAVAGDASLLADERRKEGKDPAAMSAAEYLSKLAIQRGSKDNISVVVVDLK
| Variant | relative binding score [%] |
| --- | --- |
| S104Q | 10.7 |
| S63F | 47.9 |
| D159L | -6.77 |
| N177E | 69.6 |

Mixed results
| Molecule | target | assay | system | conditions | how to read | endpoint | result |
| --- | --- | --- | --- | --- | --- | --- | --- |
| PhoQ, residues 284 288 289 292 302 303 DDMDFR | PhoP, residues 12 14 15 18 19 NNFVT (Escherichia coli, UniProt P23836) | Sort-seq, refers to: YFP reporter | E. coli | PhoQ-PhoP variant library, added: 10 µM Mg2+ | baseline: high Mg2+ state, higher = stronger signaling | fold induction | 0.639 |

A few entries again (set 2):
| Modification | mean fluorescence intensity [a.u.] |
| --- | --- |
| 2'F-ANA at 1 2 3 4 5 7 8 9 11 12 | 102 |
